Results gathered from unrelated publications.
Parts stem from different laboratories: compare values within a part only. Changes are numbered by the printed parent chain.
UniProt P08172, sequence (whole entry, looked up): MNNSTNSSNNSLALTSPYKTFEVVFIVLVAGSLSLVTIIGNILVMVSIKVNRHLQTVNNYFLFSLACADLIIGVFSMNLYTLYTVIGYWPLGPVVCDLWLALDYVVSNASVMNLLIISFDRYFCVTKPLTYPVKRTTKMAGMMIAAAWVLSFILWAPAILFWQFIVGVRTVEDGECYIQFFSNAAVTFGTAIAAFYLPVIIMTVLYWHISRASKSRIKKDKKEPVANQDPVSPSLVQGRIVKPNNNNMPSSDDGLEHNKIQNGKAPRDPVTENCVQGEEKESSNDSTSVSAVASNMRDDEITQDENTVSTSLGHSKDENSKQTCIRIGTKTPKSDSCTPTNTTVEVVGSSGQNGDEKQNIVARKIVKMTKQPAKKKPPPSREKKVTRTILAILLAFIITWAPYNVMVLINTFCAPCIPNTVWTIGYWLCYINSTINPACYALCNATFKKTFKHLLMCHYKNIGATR

Series 1
Target: RING finger protein unkempt homolog, zinc fingers 1-6, SBP tag (UNK, Homo sapiens, UniProt Q9C0B0, residues 30-357)
UniProt Q9C0B0, sequence (30-357, looked up): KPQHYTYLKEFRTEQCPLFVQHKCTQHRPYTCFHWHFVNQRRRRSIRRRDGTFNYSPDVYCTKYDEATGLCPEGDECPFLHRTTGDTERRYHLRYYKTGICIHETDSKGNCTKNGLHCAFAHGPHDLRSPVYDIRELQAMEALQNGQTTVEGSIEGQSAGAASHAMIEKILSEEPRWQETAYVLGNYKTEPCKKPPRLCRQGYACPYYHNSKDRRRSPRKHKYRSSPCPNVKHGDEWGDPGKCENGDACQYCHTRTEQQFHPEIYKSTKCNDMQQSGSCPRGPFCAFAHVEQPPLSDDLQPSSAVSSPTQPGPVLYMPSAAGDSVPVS
Method: RNA Bind-n-Seq
Molecule type: RNA
Medium: in vitro
Concentration: 100 nM
Setting: RNA with constant flanks, vertebrate orthologous sites, ends assumed
Relative to: input RNA pool
Reading: higher = stronger binding
Strand	bound/input enrichment [ratio]
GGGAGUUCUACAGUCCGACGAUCAUAUUGUAUGUAGAGAAAAUUUUUCAUUGACUCCAUUGUGAAAUUCCCUAGCAACUUAUUUAGAAUCUUAAUUUUUCUAAUUCAAGCUAACUGUUAGUCAUUUUUAGCCCAAAAUUAAAACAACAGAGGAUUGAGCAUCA	2
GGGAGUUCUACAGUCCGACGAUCUCAGUCCCCUGGGCCGGGACAGAUUUUUUUUAACGUCUUGAAACUUAAACUCUGUGCUUGUAGGAGACUGUAACCUUUUUGUCUUUUUUUUUUUUUUAAAACAAACAACCUCCAUCUCCACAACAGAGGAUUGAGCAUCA	0.802
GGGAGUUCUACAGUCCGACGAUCGUCCUUUCGCUGAGUCCCCGGCCAGGGUGGCGGGGCCAAGGUUUCACCGAGGAACUGCAUUUCAAAAAAAAACUAUUUUUAAUUGUGGUACAGGAAGCGACGUUGCUGAAACAGCCUCUGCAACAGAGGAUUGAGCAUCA	0.347
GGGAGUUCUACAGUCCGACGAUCAACAUCUGACUGGAUGAAGACCGUCCCAAGUUACAACCAAACAAACAGCUCCAUGGACUUUAGAACUUACAUGCUGAGAGACGAGAAUCUAGAACCACUGCCCCCAAACUGGGAGAUGGCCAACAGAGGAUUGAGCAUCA	0.222
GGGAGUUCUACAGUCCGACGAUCUUCAGGCACAACUGACUGGUUCUCAACAUUCCUUACAUAAUUAUCUAUCAAAUGCAAGUGUAGUUAAUUUUCAGGAAACAACCAGGCAGUCAUCUUUAUCCUGCAGCCCGGGUGGAAAUUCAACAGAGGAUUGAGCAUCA	0.448
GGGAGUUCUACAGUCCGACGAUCCACAUCUGGUGAUAUUUGGCCUGGCCUUUCAGCUUAUGAUAAUAGUCCUAGAUCACCCCAUAGUCCUUCACCAAUUGCUACGCCACCUAGUCAGAGUUCAUCUUGCUCUGAUGCGCCCAUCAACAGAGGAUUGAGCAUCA	1.32
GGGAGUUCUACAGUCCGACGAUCCACUAAAGUUAAUCAGCUGUAAUCUGAUGAAGUGUAACAUUGUGUAGCUUUUGUAUAAACACAUGAAUUGGAAAUCGUCCAAAUAUUGAGCUAUUUUCUUGCUUUAAAGACGCUGAUGUGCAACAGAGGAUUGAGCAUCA	0.289
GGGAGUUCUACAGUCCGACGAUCCAGCUGACUCACUCAUUGGGAGAGCUGCACAUAUAGCUGUUCUUGAUUCAGAAAUAUUUUUAGAGAAAUUCUUUCUGGUUGCUGCCCUCAAAUAUUUCCAAUAAGAUAAAAACAUUGUUACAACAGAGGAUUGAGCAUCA	0.578

Series 2
Target: RNA binding protein fox-1 homolog 2, RRM domain, GST-SBP tag (RBFOX2, Homo sapiens, UniProt O43251-10, residues 100-194)
Method: RNA Bind-n-Seq
Molecule type: RNA
Medium: in vitro
Concentration: 365 nM
Setting: natural RNA segment, single round, ends assumed
Relative to: no-protein control
Reading: higher = stronger binding
Residues (chain): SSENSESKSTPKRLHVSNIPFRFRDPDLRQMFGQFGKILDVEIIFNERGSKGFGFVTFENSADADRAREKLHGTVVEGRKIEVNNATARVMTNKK
Strand	RBNS enrichment (R)
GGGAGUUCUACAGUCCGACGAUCAUAGAUUUACAAUAUGUAAGAUUAAGCUGUUGAUUUCAAUAGAGCUGAGAGCUUUUAGUAAAAAUAGGCAUUUAUUUAAUAUUUCCCUGUUCCUUUGGCAAGCUUUAUCAUGGAAUUCUCGGGUGCCAA	0.494
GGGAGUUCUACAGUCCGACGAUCAAGUGCCUGUAGGCUCCUGGGACUCUGCAGCUAGGUAAAGAGUUCUAAGUUCAUCUGGCCCACGUGCAAAGUCAACAGUAUUGCCUUAAGAUUUCAGUUUUUUUUUUUUUUGGAAUUCUCGGGUGCCAA	1
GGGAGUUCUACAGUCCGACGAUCCACCAACACAGGUUGCAGAGUGCUCAGUCCUGCUCUGCCUAGCUGGCCCCACCCCAGCUCUCUUUCUCUGGGGUACUUAGGGAGAGGAUCCUUCCUCUCCGAGGAUCCUCUGGAAUUCUCGGGUGCCAA	0.43
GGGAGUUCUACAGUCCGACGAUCCAAAUCCUGUCGGUCUCCAGUUGGUUAUCUGAAUAGUGUCACCAAUUCCACCAAGACAGUGCUGAGAUUGGAAAAGGGCACUCAUUUGGAUUGCCUUACUUCUCUUGCCUUGGAAUUCUCGGGUGCCAA	0.236
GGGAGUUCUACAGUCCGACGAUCGUGAUGGCCCUGGAGGCGGGGCUGAGGAACAGGGAAAUGCCGCUGUGAAGUCUUAAAGCACUUCUGCUUAAACUCCCAUGUGUGAGGAGUGUGCCUCCCUGUGCCCUCUCUGGAAUUCUCGGGUGCCAA	0.631
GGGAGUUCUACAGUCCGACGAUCAACCCAUCUUUUGUUCUCCUAUAUCCUCCUUCUUCUGUUCCAUUUCAGUUCAGUUUCAGCGGUGCCAACCUCUUUGCGUUUCCUUUUUGUUGAUGAGGACCCAGAGCUGCUGGAAUUCUCGGGUGCCAA	0.819
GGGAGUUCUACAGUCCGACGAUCCCUCUUUCACCUUUCCCUAAAGACCCUAAAUCUGAGGAAUCAACAGGGCAGCAGAUCUGUAUAUUUUUUUCUAAGAGAAAAUGUAAAUAAAGGAUUUCUAGAUGAGUGAGUGGAAUUCUCGGGUGCCAA	0.351
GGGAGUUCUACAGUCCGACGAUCAAAAGGCUGCCUUCAAUUCUAAGCUUUGUUUUUUUGUGGUUUUUGUUAUUAUUUGUUUCUGUUGUUUACUCUUUAAUCGUAAGUACUUUUAAACCACGACCCAGGUCCUUUGGAAUUCUCGGGUGCCAA	0.584

Series 3
Target: HLF, bZIP domain (human)
Method: DHFR protein complementation
Medium: yeast
Setting: single substitutions, most at no-binding floor
Relative to: wild-type JUN-FOS pair
Reading: higher = stronger binding
Parent: JUN, bZIP domain (human); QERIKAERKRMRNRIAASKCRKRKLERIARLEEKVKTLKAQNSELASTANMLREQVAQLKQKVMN; partner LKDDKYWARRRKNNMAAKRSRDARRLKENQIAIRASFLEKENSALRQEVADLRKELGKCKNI
Change	binding fitness
S43H	-1.36 natural log
R53G	-1.48 natural log
N42P	-1.52 natural log
V35L	-1.39 natural log
L59W	-1.32 natural log
E44A	-1.42 natural log
T37I	-1.41 natural log
Q41T	-1.45 natural log

Further values, each from its own experiment
Compound	target	test	conditions	quantity	result
CC(C)CC(=O)N1CCc2nc(-c3ccc(Br)cc3)nc(N(C)Cc3ccccc3)c2C1	Muscarinic acetylcholine receptor M2 (CHRM2, Homo sapiens, UniProt P08172)	binding, radioligand binding	10 µM	inhibition	18.2%

A few entries again (series 3):
Change	binding fitness
N42P	-1.52 natural log
L59W	-1.32 natural log
